Published values gathered from unrelated publications.
Each numbered part is a random draw from the data of one study; scales do not carry over between parts.
Chain of UniProt Q9NR20 (whole entry, looked up): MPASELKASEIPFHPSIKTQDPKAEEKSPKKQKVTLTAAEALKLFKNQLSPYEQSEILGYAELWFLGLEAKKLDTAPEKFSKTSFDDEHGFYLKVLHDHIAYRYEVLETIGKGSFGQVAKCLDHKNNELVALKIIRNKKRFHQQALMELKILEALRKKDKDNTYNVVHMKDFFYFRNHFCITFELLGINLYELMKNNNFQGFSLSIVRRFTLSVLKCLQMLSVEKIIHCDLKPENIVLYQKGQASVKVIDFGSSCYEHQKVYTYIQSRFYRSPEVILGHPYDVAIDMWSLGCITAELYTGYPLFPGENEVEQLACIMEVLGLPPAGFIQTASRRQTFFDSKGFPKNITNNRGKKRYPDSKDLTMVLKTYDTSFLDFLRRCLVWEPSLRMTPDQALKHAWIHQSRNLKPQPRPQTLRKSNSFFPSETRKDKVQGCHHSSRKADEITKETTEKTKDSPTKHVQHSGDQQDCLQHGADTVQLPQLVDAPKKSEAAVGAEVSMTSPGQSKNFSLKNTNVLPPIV

Set 1 — technique: aptamer microarray, sandwich; molecule type: DNA with 2'F-ANA; sample: in vitro; concentration: 200 nM; with: Cy3 exosite-II aptamer, 400 nM; direction: higher = stronger binding; strand: GGTTGGTGTGGTTGG
Target: Prothrombin, mature alpha-thrombin (F2, Homo sapiens, UniProt P00734)
Notes: whole 15-mer aptamer, many near background
| Modification | mean fluorescence intensity [a.u.] |
| --- | --- |
| 2'F-ANA at 1 4 5 6 8 9 10 11 | 50.1 |
| 2'F-ANA at 1 3 6 7 9 10 14 | 101 |
| 2'F-ANA at 1 2 3 6 7 9 12 15 | 333 |
| 2'F-ANA at 1 2 6 8 9 10 12 14 | 46.5 |
| 2'F-ANA at 1 2 8 10 12 13 14 15 | 49 |
| 2'F-ANA at 2 3 7 8 9 12 13 15 | 1040 |
| 2'F-ANA at 5 7 8 9 10 11 14 15 | 49.2 |
| 2'F-ANA at 2 4 5 7 8 11 12 13 14 | 45.8 |

Set 2 — technique: protein-binding microarray; molecule type: hairpin DNA; sample: in vitro; concentration: not given; baseline: not given; direction: higher = stronger binding; constant ends, left off below: GAGGCCCGA … TCGGGCCTCACAC
Target: Interferon regulatory factor 1, DNA-binding domain (IRF1, Homo sapiens, UniProt P10914, residues 1-114)
Notes: whole hairpin DNA, median over replicate spots
Residues (chain): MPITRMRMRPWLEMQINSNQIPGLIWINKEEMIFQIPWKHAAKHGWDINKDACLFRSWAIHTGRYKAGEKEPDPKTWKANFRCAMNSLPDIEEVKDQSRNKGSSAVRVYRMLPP
| Strand | median fluorescence [a.u.] |
| --- | --- |
| AAGCGACACGCCTCCTGGCGTGTCGCTT | 508 |
| AAGGGAAACGCCTCCTGGCGTTTCCCTT (5mC at 34) | 599 |
| CAGTGAAACGCCTCCTGGCGTTTCACTG (5mC at 10) | 494 |
| AAGTGCGACGCCTCCTGGCGTCGCACTT (5mC at 15 31) | 522 |
| CGGTGAAACGCCTCCTGGCGTTTCACCG | 522 |
| AAGTGACGCGCCTCCTGGCGCGTCACTT (5mC at 30) | 542 |
| AAGCCAAACGCCTCCTGGCGTTTGGCTT | 524 |
| AAGCGACGCGCCTCCTGGCGCGTCGCTT (5mC at 30) | 522 |

Other studies, line by line
| Molecule | tested on | test | test system | conditions | scale | quantity | value |
| --- | --- | --- | --- | --- | --- | --- | --- |
| FLOT1 (Homo sapiens, UniProt O75955) | EP400 (Homo sapiens, UniProt Q96L91) | cross-linking MS | cell fractions | with: DSSO | – | cross-linked residues | K198 to S1190 |
| COc1cc2ncnc(Nc3ccc(O)c(Br)c3)c2cc1OC | DYRK4 (Homo sapiens, UniProt Q9NR20) | enzyme activity, inhibitor | – | 0.5 µM | baseline: control | remaining activity | 101% |
| TTC7B (Homo sapiens, UniProt Q86TV6) | HYCC1 (Homo sapiens, UniProt Q9BYI3) | cross-linking MS | – | hits only | – | interaction screen | cross-linked |
| RPN1 (Homo sapiens, UniProt P04843) | MLEC (Homo sapiens, UniProt Q14165) | cross-linking MS | cell fractions | with: DSSO | – | cross-linked residues | K176 to K246 |
